Results collected from several papers.
A part holds a random share of what one study measured.

Series 1 — cell line: HEK-293T; read-out: pseudovirus infection; technique: FDA-approved drug library screen; organism: VSV pseudotyped with SARS-CoV-2 spike; tested at: 10 µM; time: 16 h; reference: vehicle-treated
SMILES	GFP-positive cells [%]
NS(=O)(=O)c1cc(C2(O)NC(=O)c3ccccc32)ccc1Cl (stereo not drawn)	73.2
Cc1nc(Nc2ncc(C(=O)Nc3c(C)cccc3Cl)s2)cc(N2CCN(CCO)CC2)n1	69
C[C@H]1C[C@@H]2[C@H]([C@@H](O)C[C@@]3(C)[C@H]2CC[C@]3(O)C(=O)CO)[C@@]2(C)C=CC(=O)C=C12	96.2
CC(C)(C)NCC(O)COc1cccc2c1CC(O)C(O)C2 (stereo not drawn)	74.6
C/C(=C\C(=O)OCCCCCCCCC(=O)O)C[C@@H]1OC[C@H](C[C@@H]2O[C@H]2[C@@H](C)[C@H](C)O)[C@@H](O)[C@H]1O	87.8

Series 2 — technique: universal PBM; form: double-stranded DNA, one strand shown; medium: in vitro; tested at: not given; reading: higher = stronger binding
Target: Sal-like protein 4, full length isoform B (SALL4, Homo sapiens, UniProt Q9UJQ4-2, residues 1-616)
Setting: 8-mer, flanks averaged, mean of replicates
Strand	E-score
ATGATTAA	0.331
ACGTTCTC	0.0451
GAAGATGA	0.129
AGCCTTAC	-0.156
AGTTGCTG	-0.172
CACCTGTA	0.0305
CAGTACCG	-0.224
CCCGTAAA	0.0627

Series 3 — technique: protein binding microarray; form: double-stranded DNA, one strand shown; medium: in vitro; tested at: not given; reference: not given; reading: higher = stronger binding
Target: Histone acetyltransferase KAT6A, both winged helices, GST fusion (KAT6A, Homo sapiens, UniProt Q92794, residues 1-181)
Setting: 8-mer, flanks averaged, mean of 2 arrays, mostly near background
Residues (chain): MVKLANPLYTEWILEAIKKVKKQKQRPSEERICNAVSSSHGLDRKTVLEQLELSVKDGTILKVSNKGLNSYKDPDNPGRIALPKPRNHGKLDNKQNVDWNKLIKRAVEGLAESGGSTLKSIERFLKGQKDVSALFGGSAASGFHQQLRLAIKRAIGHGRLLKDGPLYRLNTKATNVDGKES
Strand	E-score
AGCTTTGA	-0.103
CGTATAAA	0.244
ACCGTCCC	0.104
CTCAAGAG	-0.214
CCAACCAA	-0.117
GAGTTCCC	-0.078
AATCTGGG	-0.182
CTTCCCCC	-0.182

Series 4 — action: inhibitor; tested at: 20 µM
Target: Replicase polyprotein 1ab, nsp13 helicase (rep, Severe acute respiratory syndrome coronavirus 2, UniProt P0DTD1)
Compound	inhibition [%]
O=C(Nc1ccccc1)[C@@]12C[C@@H]1/C(=N\O)c1ccccc1O2	6.21
C[C@@H](O)[C@@H]1NC(=O)[C@H](CCCCN)NC(=O)[C@@H](Cc2c[nH]c3ccccc23)NC(=O)[C@H](Cc2ccccc2)NC(=O)[C@@H](NC(=O)[C@H](N)Cc2ccccc2)CSSC[C@@H](C(=O)N[C@H](CO)[C@@H](C)O)NC1=O	3.9
CCN1CCN(C(=O)N[C@@H](C(=O)N[C@@H]2C(=O)N3[C@@H]2SC(C)(C)[C@@H]3C(=O)O)c2ccccc2)C(=O)C1=O	-0.8
CCC(Oc1ccc(Cl)cc1)C(=O)OC1C[C@H]2CC[C@@H](C1)N2C (stereo partly drawn)	-2.78
CO[C@H]1C[C@H](O[C@H]2CC[C@@]3(C)[C@H](CC[C@@H]4[C@@H]3CC[C@]3(C)[C@@H](C5=CC(=O)OC5)[C@@H](OC(C)=O)C[C@]43O)C2)O[C@@H](C)[C@@H]1O	9.35
NC(=NCCC[C@H](N)C(=O)O)N[N+](=O)[O-]	11
Cc1c(-c2ccccc2)oc2c(C(=O)OCCN3CCCCC3)cccc2c1=O	14.1
O=c1cc[nH]c(=S)[nH]1	-3.72
CCn1c(=O)[nH]c2ccccc21	3.23
C#C[C@]1(O)CC[C@H]2[C@@H]3CCC4=CCCC[C@@H]4[C@H]3C(=C)C[C@@]21CC	5.73
CCCC1O[C@@H]2C[C@H]3[C@@H]4CCC5=CC(=O)C=C[C@]5(C)[C@H]4[C@@H](O)C[C@]3(C)[C@]2(C(=O)CO)O1 (stereo partly drawn)	1.18
CCOC(=O)OC(C)OC(=O)[C@@H]1N2C(=O)[C@@H](NC(=O)[C@H](N)c3ccccc3)[C@H]2SC1(C)C (stereo partly drawn)	19
Cn1cc(C(=O)[C@@H]2CCc3[nH]cnc3C2)c2ccccc21	4.94
C[C@H]1[C@@H](O)O[C@@H]2O[C@@]3(C)CC[C@H]4[C@H](C)CC[C@@H]1[C@@]24OO3	8.04
CCCCC(CC)CNC(=N)NC(=N)NCCCCCCNC(=N)NC(=N)NCC(CC)CCCC (stereo not drawn)	81.5
CC(=O)OCC1=C(C(=O)O)N2C(=O)[C@@H](NC(=O)CSC(=NC(C)C)NC(C)C)[C@H]2SC1	22.2
Cl/C(=C\n1cncn1)c1ccc(Cl)cc1Cl	6
O=C(O)COc1ccc(C(=O)c2cccs2)c(Cl)c1Cl	1.61
CN1CCN(Cc2ccc(Nc3ncc(Cl)c(Nc4ccccc4S(=O)(=O)N(C)C)n3)cc2)CC1	-1.49
CN1C(=O)OC(C)(C)C1=O	8.21
NCCCC[C@H](NC(=O)[C@@H]1CCCN1C(=O)[C@@H]1CSSC[C@H](NC(=O)CNC(=O)CNC(=O)CN)C(=O)N[C@@H](Cc2ccc(O)cc2)C(=O)N[C@@H](Cc2ccccc2)C(=O)N[C@@H](CCC(N)=O)C(=O)N[C@@H](CC(N)=O)C(=O)N1)C(=O)NCC(N)=O	1.93
FC(F)(F)c1cc(NC(=S)Nc2ccc(Br)cc2-c2nn[nH]n2)cc(C(F)(F)F)c1	2.51
Cc1ccc(NC(=O)c2ccc(CN3CCN(C)CC3)cc2)cc1Nc1nc(-c2cccnc2)cs1	18.4
Cc1cc2c(cc1CC(=O)c1sccc1S(=O)(=O)Nc1onc(C)c1Cl)OCO2	5.12
O=C(NC(NC(=S)Nc1ccc(F)c([N+](=O)[O-])c1)C(Cl)(Cl)Cl)C(c1ccccc1)c1ccccc1 (stereo not drawn)	4.31

Series 5 — read-out: enzyme activity; action: inhibitor; tested at: 20 µM; setting: primary screen
Target: Replicase polyprotein 1ab, main protease (rep, Severe acute respiratory syndrome coronavirus 2, UniProt P0DTD1)
Structure (SMILES)	inhibition [%]
CCN(CC)c1ccc(C(=C2C=CC(=[N+](CC)CC)C=C2)c2ccccc2)cc1	98.2
CC1(C)C(=O)N=C2C1=C(O)C(=O)c1ccccc12	58.8
c1cc[n+]2c(c1)[S][Zn]1([O]2)[O][n+]2ccccc2[S]1	99.7

Series 6 — technique: RNA Bind-n-Seq; form: RNA; medium: in vitro; tested at: 365 nM; reference: no-protein control; reading: higher = stronger binding
Target: RNA binding protein fox-1 homolog 2, RRM domain, GST-SBP tag (RBFOX2, Homo sapiens, UniProt O43251-10, residues 100-194)
Setting: natural RNA segment, single round, ends assumed
Shared flanks, not repeated: GGGAGUUCUACAGUCCGACGAUC … UGGAAUUCUCGGGUGCCAA
Construct (chain): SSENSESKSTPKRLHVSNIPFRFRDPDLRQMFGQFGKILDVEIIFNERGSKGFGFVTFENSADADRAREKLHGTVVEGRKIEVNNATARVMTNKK
Strand	RBNS enrichment (R)
AUACAACUGGUAAAGGACGUUUUCUUGAGAGUUUUAACUAUAUGUAAACAUUGUAUAAUGAUAUGGAAUAAAAUGCACAUUGUAGGACAUUUUCUAAAUUUGGUGGUCCU	0.232
GAAGGUGGACCUUCUACAAUCUGUCAUGAACUGUGAUAUUGUAAGGUCUAUAUUCUGUAUGUGGAUAACAGACCCAAUCAGGAAACGAGCCUUAUGUGUGUCGUUAACAU	0.239
GCUCCCCAUUGAUUGAAGAGUCACUGUCUGAAAGAAGCAAAGUUCAGUUUCAGCAACAAACAAACUUUGUUUGGGAAGCUAUGGAGGAGGACUUUUAGAUUUAGUGAAGA	0.945
ACAGCUAAUGGUGCAGUUCUAAAUAUAUAUUGCAUAGGACUGGCAUUAUAUAGCAGAAAUAACUACUGUAUAAUUCUUGGGGUUAACCAUCUUUAGUUAAUGGAAUUUUA	0.656
UUUUUUUCUCCCUCAAGUAUAAAUAGUGGUAACUAUAUGUUUUGUAUCUUCUAGCACCAACUGCUGUAAAGCAAUGCUGCAAAUAAUGCUUGAAUACAAGUGGCUAAGCC	0.582
UUUUACCAGAACCCUUCUGCAAUGCCUCCUGCAUAGGUCCCAAGAUGUGUAGCGAUCCAUCCCUGGUUAGCAAUUCCAUCAAUUUCUUGCAUAUUAUCCUCCCAGGACAU	0.579
GGUGGCAACAUGGUUCUUGAACAAUUAAAGAAACAAAUGACUUUUUGGAAUAGCCCUGUCUAGGGCAAACUGUGGCCCCCAGGAGACACUACCCUUCCAUGCCCCAGACC	0.452
CAAUGGUACAACUGCCCAAAUCCACCUUUGGUUUCUGAUGACUUACAAGUGACUAUAGAAGAAAGAGGCCUGGUCUUGAGCAGAGACUCUUGUUCGCAACUCAGAUCACA	0.343

For quick reference, copied from above (series 2):
Strand	E-score
ACGTTCTC	0.0451
GAAGATGA	0.129
AGCCTTAC	-0.156
AGTTGCTG	-0.172
CACCTGTA	0.0305
CAGTACCG	-0.224
